# Published values pooled from the literature.
# Protocols differ between the studies behind these lines. ± gives the spread as reported.
Substance,test,system,conditions,how to read,endpoint,result
CC(C)(Sc1cc[n+]([O-])cc1-c1ccc(C#N)c2ccccc12)C(=O)OC1OC(C(=O)O)C(O)C(O)C1O (stereo not shown),,urine,"oral, 15 mg, severe renal impairment",relative to: normal renal function,fraction excreted unchanged,~33%
Cc1ncnc2c1c(C(F)(F)F)cn2[C@@H]1O[C@H](CO)[C@@H](O)[C@H]1O,microscopy,"primary peritoneal macrophages, Swiss mouse",5 days,,CC50,8 µM
NS(=O)(=O)c1ccc(N2N=C(C(F)(F)F)C(O)C2c2ccc(F)cc2F)cc1 (stereo not shown),substrate,male beagle dog liver microsomes,"20 µM, pH 7.4, mean of 0-90 and 0-60 min",,metabolite formation rate,23.7 pmol/min/mg
CN(C)c1ccc2c(-c3cc(C(=O)N4CCN(CCCOc5ccc6nccc(C(=O)NCC(=O)N7CC(F)(F)C[C@H]7C#N)c6c5)CC4)ccc3C(=O)[O-])c3ccc(=[N+](C)C)cc-3oc2c1,intravital imaging,"mouse B16-F10-GFP tumour, tumour fibroblasts","intravenous, 1 µM, 100 µL",,fibroblast accumulation onset time,30 min
CCC(=O)N[C@@H](C)C(=O)OCC(=O)N[C@@H](C)C(=O)O,,water,"pH 5, 50 °C",,depolymerization half-life,157 h
CCCC[C@H](NC(=O)CN1CCC(NC(=O)CN2CCN(CC(=O)O)CCN(CC(=O)O)CCN(CC(=O)O)CC2)CC1)C(=O)N[C@H]1CC(=O)NCCCC[C@@H](C(N)=O)NC(=O)[C@H](Cc2c[nH]c3ccccc23)NC(=O)[C@H](CCCNC(=N)N)NC(=O)[C@@H](Cc2ccccc2)NC(=O)[C@H](Cc2c[nH]cn2)NC1=O [gallium-68 labelled],,"male C57BL/6J mice, B16-F10 tumours, tumour, kidney","intravenous, 1 h, blocking study, with: 100 µg non-radioactive Ga-peptide",relative to: tumour over kidney,uptake ratio,0.1 ± 0.1
COC(=O)c1ccc2c(c1)NC(=O)/C2=C(\Nc1ccc2c(c1)CCN2C(=O)CN1CCOCC1)c1ccccc1,,"beagle dog, plasma","oral, 50 mg/kg",,bioavailability,21%
CCn1c(=O)n(CCO)c(=O)c2c1nc(/C=C/c1ccc(OC)c(OC)c1)n2C,,"healthy humans, plasma","oral, 40 mg",,metabolite to parent Cmax ratio,0.0674
COc1ccc(/C=C/c2ccc(-c3ccc(C)cn3)nc2)cc1,,MeOH,with: quinine bisulfate reference,,fluorescence quantum yield,0.33
Cc1nc(C)c(C=[N+]([O-])C(C)(C)C)nc1C,,"healthy human, both sexes, serum","oral, 600 mg twice daily, 7 days",,Cavg,1980 ng/mL
CCCC[C@@H]1NC(=O)[C@@H](NC(=O)[C@H](CCC(=O)O)NC(=O)CNC(=O)CN2CCN(CC(=O)O)CCN(CC(=O)O)CCN(CC(=O)O)CC2)CCCCNC(=O)C[C@@H](C(N)=O)NC(=O)[C@H](C(C)C)NC(=O)[C@@H]2CCCN2C(=O)[C@H](CCCNC(=N)N)NC(=O)CNC(=O)[C@H](Cc2c[nH]c3ccccc23)NC(=O)[C@H](CCCNC(=N)N)NC(=O)[C@@H](Cc2ccccc2)NC(=O)[C@H](Cc2c[nH]cn2)NC(=O)[C@H](CCC(=O)O)NC1=O [gallium-67 labelled],,"C57 mice, B16/F10 lung metastatic melanoma, heart","intravenous, 0.037 MBq, 2 h",,tissue uptake,0.02 ± 0.02 %ID/g
CC(C)(C)N/C=C(/c1ccccc1)S(=O)(=O)O,,"Swiss Webster mouse, female, plasma","AUC(0-8h), metabolite peak areas","relative to: PO over IV, dose-normalised",metabolite AUC ratio,1.49
CCCC[C@H](NC(=O)CNC(=O)CNC(=O)CN1CCN(CC(=O)O)CCN(CC(=O)O)CCN(CC(=O)O)CC1)C(=O)N[C@H]1CC(=O)NCCCC[C@@H](C(N)=O)NC(=O)[C@H](Cc2c[nH]c3ccccc23)NC(=O)[C@H](CCCNC(=N)N)NC(=O)[C@@H](Cc2ccccc2)NC(=O)[C@H](Cc2c[nH]cn2)NC1=O [lead-203 labelled],,"normal C57 mice, urine","intravenous, 0.056 MBq, 2 h",,urinary excretion,83.9 ± 11.8%
COCCOCCOCCOCCC(=O)NCc1cc(CNC(=O)CCOCCOCCOCCOC)cc(-c2cc3cc4nc(c(-c5ccc(CCC(=O)O)cc5)c5[nH]c(cc6nc(c(OC)c2[nH]3)CC6(C)C)cc5-c2cc(CNC(=O)CCOCCOCCOCCOC)cc(CNC(=O)CCOCCOCCOCCOC)c2)CC4(C)C)c1,,water with 5% DMF,room temperature,,Qy/B absorption intensity ratio,0.69
O=C(Nc1nccs1)C(c1cc(F)ccc1O)N1Cc2ccccc2C1=O (stereo not shown),,mouse plasma,"6 ng/mL, 5 h, room temperature, short-term stability, low QC",,recovery,97.8 ± 2.7%
O=C([O-])CN1CCN(CC(=O)[O-])CCN(CC(=O)NC[C@H]2CC[C@H](C(=O)N[C@H](Cc3cnc4ccccc4c3)C(=O)NCCCC[C@H](NC(=O)N[C@@H](CCC(=O)O)C(=O)O)C(=O)O)CC2)CCN(CC(=O)[O-])CC1.[64Cu+2],"PET/CT, OLINDA/EXM dosimetry","healthy human volunteers, rectum",,,absorbed dose,0.0161 mGy/MBq
CC(C)c1cnc(-c2cc(Cl)ccc2F)cc1Nc1ccncc1C(=O)NC(CO)CO,"monotherapy, refers to: headache",human patients,"oral, dose not given, grade 3, phase I A",,patients with treatment-related adverse event,0%
N#Cc1cnc2cc(OCC3CCNCC3)c(F)cc2c1Nc1cc(F)c(OCc2cccc(Cl)n2)cc1Cl,,"male beagle dog, plasma","oral, 5 mg/kg",,bioavailability,37%
O=C(NCCCN(CCCCN(CCCNC(=O)c1cccc(=O)n1[O-])C(=O)c1cccc(=O)n1[O-])C(=O)c1cccc(=O)n1[O-])c1cccc(=O)n1[O-].[89Zr+4],radio-TLC,PBS,"1 h, pH 7.4, 37 °C, with: Mg^2+ 10-fold excess",,intact complex,98.3 ± 2.5%
CN[C@@H](CCOc1cccc2ccccc12)c1ccccc1,,"healthy male humans, plasma","oral, 60 mg of dapoxetine, with: udenafil 200 mg",,median Tmax,2.25 h
COc1cc(NC(C)=O)c2c(c1O)-c1c(OC)c(OC)cc3c1C(C2)N(C)CC3 (stereo not shown),,rat lung homogenate,"5 µg/mL, 4 h, room temperature, short-term storage",,remaining compound,92.4 ± 1.4%
O=c1nc(NO)ccn1[C@@H]1O[C@H](CO)[C@@H](O)[C@H]1O,"RT-PCR, refers to: CYP2B2","normal rat, liver","oral, 80 mg/kg twice daily, 5 days",relative to: untreated rats,mRNA level,0.1 fold
COc1ccnc(C[S+]([O-])c2nc3cc(-n4cccc4)ccc3[nH]2)c1C (stereo not shown),,Sprague Dawley rats,"po, racemate dosed",relative to: R-ilaprazole,oral bioavailability,increased
O=C([O-])CN1CCN(CC(=O)[O-])CCN(CC(=O)NCC2CCC(C(=O)NC(Cc3ccc4ccccc4c3)C(=O)NCCCCC(NC(=O)NC(CCC(=O)O)C(=O)O)C(=O)O)CC2)CCN(CC(=O)[O-])CC1.[44Sc+3] (stereo not shown),"PET/CT, OLINDA/EXM","human patients, salivary glands",mean of patients,,absorbed dose,0.075 mSv/MBq
Polymyxin B,ultrafiltration ELISA,0.9% NaCl solution,"1 µg/mL, 100 kDa MMCO filter",relative to: positive control,fraction in filtrate,98%
CCCC[C@H](NC(=O)CNC(=O)CNC(=O)CN1CCN(CC(=O)O)CCN(CC(=O)O)CCN(CC(=O)O)CC1)C(=O)N[C@H]1CC(=O)NCCCC[C@@H](C(N)=O)NC(=O)[C@H](Cc2c[nH]c3ccccc23)NC(=O)[C@H](CCCNC(=N)N)NC(=O)[C@@H](Cc2ccccc2)NC(=O)[C@H](Cc2c[nH]cn2)NC1=O [copper-64 labelled],,"C57 mouse female B16/F1 melanoma, intestines","intravenous, 0.037 MBq, 4 h",,tissue uptake,12.5 ± 2.98 %ID
COC[C@@H](CC(C)C)NC(=O)c1ccc(CO)c(CO)c1,LC-MS,human liver microsomes,"10 µM of parent drug, 20 min, pH 7.4, with: NADPH",relative to: parent drug at time zero,metabolite peak area,0.4%
C=CC(=O)Nc1cc(Nc2nccc(-c3cn(C)c4ccccc34)n2)c(OC)cc1N(C)CCNC,UHPLC-MS/MS,"human, finger-prick dried blood spot","oral, 80 mg daily",,steady-state trough concentration,18 ng/mL
NC12CNCCNCC(NCc3ccc(CNC(=O)CCCC(=O)NCc4ccc(-c5nncnn5)cc4)cc3)(CNCCNC1)CNCCNC2.[64Cu+2],OLINDA dosimetry,adrenals,"48 h pretargeting interval, with: huA33-TCO pretargeting",,mean absorbed dose,0.0347 rad/mCi
COc1cc2c(cc1OC)CN(CCCCn1ccc3cc(OCC[18F])ccc31)C2,,"ICR mice, male","intravenous, 2 min",,brain/blood ratio,1.36 ± 0.08
N=C(N)NCCC[C@@H]1NC(=O)[C@H](Cc2c[nH]c3ccccc23)NC(=O)[C@@H](CC2CCCCC2)NC(=O)[C@@H]2CCCN2C(=O)[C@@H](NC(=O)CCc2ccccc2)CCCNC1=O,,"C57BL/6J mice, spinal cord","subcutaneous, 1 mg/kg, two-compartment model",,apparent distributional clearance,0.07 ng/(min·ng/g)
C=C(c1ccc(C(=O)O)c(F)c1)c1cc2c(cc1C)C(C)(C)C=CC2(C)C,,"Sprague-Dawley rat, male","oral, 100 mg/kg, 9 h, sesame oil vehicle",,blood triglycerides,340 ± 182 mg/dL
[11CH3]c1ccc2nc(C3CCC3)n(-c3ccc4[nH]ncc4c3)c2n1,,"human female, lungs",,,absorbed radiation dose,4.6 µSv/MBq
CC/C=C\C/C=C\C/C=C\C/C=C\C/C=C\CCCCOC(CC)C(=O)O (stereo not shown),[14C] label,"male Wistar rat, kidney cortex","oral, 100 mg/kg, 2 h",,radioactivity concentration,70.6 µg equiv/g
CCCC[C@H](NC(C)=O)C(=O)N[C@H]1CC(=O)NCCCC[C@@H](C(=O)N[C@@H](C(=O)N2CCC[C@@H]2C(N)=O)C(C)C)NC(=O)[C@H](Cc2c[nH]c3ccccc23)NC(=O)[C@H](CCCN=C(N)N)NC(=O)[C@@H](Cc2ccc3ccccc3c2)NC(=O)[C@@H]2CCCN2C1=O,,"Beagle dog, both sexes, plasma","subcutaneous, once daily, 2.25 mg/kg, day 1",,Tmax,1.1 ± 0.3 h
CSCOC1C(=O)C2(C)C(OCSC)CC3OCC3(OC(C)=O)C2C(OC(=O)c2ccccc2)C2(O)CC(OC(=O)C(O)C(C=C(C)C)NC(=O)OC(C)(C)C)C(C)=C1C2(C)C (stereo not shown),,"male Sprague-Dawley rat, plasma","intravenous, 2 mg/kg",,Vd,89.1 L/kg
Cc1ccc(OCC(=O)O)cc1,,"Sprague-Dawley rat, male, plasma","oral gavage, 10 mg/kg of parent drug",,AUC(0-last),5710 ± 2120 ng·h/mL
Cn1c(=O)oc2ccc(-c3ccc(CC(C#N)NC(=O)C4CNCCCO4)c(F)c3)cc21 (stereo not shown),,human,"oral, 40 mg once daily, treatment-related AE, multiple ascending dose",,acne incidence,0%
Cc1ccc(/N=N/c2c(O)ccc3ccccc23)c(C)c1,,rat whole blood QC samples,"16.0 µg/L, 2 h, room temperature, short-term stability",,measured concentration,16.1 µg/L
CCCC[C@H](NC(=O)CNC(=O)CNC(=O)CN1CCN(CC(=O)O)CCN(CC(=O)O)CCN(CC(=O)O)CC1)C(=O)N[C@H]1CC(=O)NCCCC[C@@H](C(N)=O)NC(=O)[C@H](Cc2c[nH]c3ccccc23)NC(=O)[C@H](CCCNC(=N)N)NC(=O)[C@@H](Cc2ccccc2)NC(=O)[C@H](Cc2c[nH]cn2)NC1=O [gallium-67 labelled],,"female C57 mice, B16/F1 melanoma","intravenous, 0.037 MBq, 0.5 h",relative to: tumour over muscle,tumour to tissue ratio,35.8
CCCCN1C(=O)c2cccc3c(NCCCCCCCCCCN4CCOCC4)ccc(c23)C1=O,,aqueous medium,pH 6,,fluorescence brightness,912 M⁻¹ cm⁻¹
NC(=O)c1cnc2[nH]ccc2c1NC1C2CC3CC1CC(OS(=O)(=O)O)(C3)C2 (stereo not shown),,"Japanese adults, normal hepatic function, plasma","oral, 150 mg single dose",,AUC(0-t),2920 ng·h/mL
CC(C)[C@H](NC(=O)[C@@H]1CCCN1C(=O)[C@H](CCCNC(=N)N)NC(=O)[C@H](CS)NC(=O)[C@H](Cc1c[nH]c2ccccc12)NC(=O)[C@H](CCCNC(=N)N)NC(=O)[C@@H](Cc1ccccc1)NC(=O)[C@H](Cc1c[nH]cn1)NC(=O)[C@H](CCC(=O)O)NC(=O)[C@H](CS)NC(=O)[C@H](CS)NC(=O)CNC(=O)[C@@H]1CC(=O)N[C@@H](CCCNC(=N)N)C(=O)NCC(=O)N[C@@H](CC(=O)O)C(=O)N[C@H](Cc2ccc(O)cc2)C(=O)N1)C(N)=O [technetium-99m labelled],,"C57 mouse, female, B16/F1 melanoma","intravenous, 0.037 MBq, 0.5 h",relative to: tumour over muscle,tumour to tissue ratio,9.25

# Excerpt of the above:
Substance,test,system,conditions,how to read,endpoint,result
COc1cc(NC(C)=O)c2c(c1O)-c1c(OC)c(OC)cc3c1C(C2)N(C)CC3 (stereo not shown),,rat lung homogenate,"5 µg/mL, 4 h, room temperature, short-term storage",,remaining compound,92.4 ± 1.4%
CC(C)c1cnc(-c2cc(Cl)ccc2F)cc1Nc1ccncc1C(=O)NC(CO)CO,"monotherapy, refers to: headache",human patients,"oral, dose not given, grade 3, phase I A",,patients with treatment-related adverse event,0%
COc1ccc(/C=C/c2ccc(-c3ccc(C)cn3)nc2)cc1,,MeOH,with: quinine bisulfate reference,,fluorescence quantum yield,0.33
CC(C)(C)N/C=C(/c1ccccc1)S(=O)(=O)O,,"Swiss Webster mouse, female, plasma","AUC(0-8h), metabolite peak areas","relative to: PO over IV, dose-normalised",metabolite AUC ratio,1.49
COC[C@@H](CC(C)C)NC(=O)c1ccc(CO)c(CO)c1,LC-MS,human liver microsomes,"10 µM of parent drug, 20 min, pH 7.4, with: NADPH",relative to: parent drug at time zero,metabolite peak area,0.4%
O=C([O-])CN1CCN(CC(=O)[O-])CCN(CC(=O)NCC2CCC(C(=O)NC(Cc3ccc4ccccc4c3)C(=O)NCCCCC(NC(=O)NC(CCC(=O)O)C(=O)O)C(=O)O)CC2)CCN(CC(=O)[O-])CC1.[44Sc+3] (stereo not shown),"PET/CT, OLINDA/EXM","human patients, salivary glands",mean of patients,,absorbed dose,0.075 mSv/MBq
Cc1ccc(/N=N/c2c(O)ccc3ccccc23)c(C)c1,,rat whole blood QC samples,"16.0 µg/L, 2 h, room temperature, short-term stability",,measured concentration,16.1 µg/L
